# Measured values of several laboratories.
# Each numbered part is a random draw from the data of one study; scales do not carry over between parts. Values joined by “and” are separate records of one study, mostly repeats; a detail may differ.
# UniProt Q14012, sequence (whole entry, looked up): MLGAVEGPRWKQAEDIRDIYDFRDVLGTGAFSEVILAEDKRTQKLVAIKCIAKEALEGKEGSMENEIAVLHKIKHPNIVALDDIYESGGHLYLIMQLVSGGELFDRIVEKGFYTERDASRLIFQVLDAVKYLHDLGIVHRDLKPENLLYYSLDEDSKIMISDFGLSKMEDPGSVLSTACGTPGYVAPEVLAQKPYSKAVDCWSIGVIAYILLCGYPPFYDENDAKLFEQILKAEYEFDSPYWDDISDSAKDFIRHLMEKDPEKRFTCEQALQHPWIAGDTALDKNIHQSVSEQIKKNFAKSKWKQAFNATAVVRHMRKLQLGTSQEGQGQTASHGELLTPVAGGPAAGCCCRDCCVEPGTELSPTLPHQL
# UniProt O75582, sequence (whole entry, looked up): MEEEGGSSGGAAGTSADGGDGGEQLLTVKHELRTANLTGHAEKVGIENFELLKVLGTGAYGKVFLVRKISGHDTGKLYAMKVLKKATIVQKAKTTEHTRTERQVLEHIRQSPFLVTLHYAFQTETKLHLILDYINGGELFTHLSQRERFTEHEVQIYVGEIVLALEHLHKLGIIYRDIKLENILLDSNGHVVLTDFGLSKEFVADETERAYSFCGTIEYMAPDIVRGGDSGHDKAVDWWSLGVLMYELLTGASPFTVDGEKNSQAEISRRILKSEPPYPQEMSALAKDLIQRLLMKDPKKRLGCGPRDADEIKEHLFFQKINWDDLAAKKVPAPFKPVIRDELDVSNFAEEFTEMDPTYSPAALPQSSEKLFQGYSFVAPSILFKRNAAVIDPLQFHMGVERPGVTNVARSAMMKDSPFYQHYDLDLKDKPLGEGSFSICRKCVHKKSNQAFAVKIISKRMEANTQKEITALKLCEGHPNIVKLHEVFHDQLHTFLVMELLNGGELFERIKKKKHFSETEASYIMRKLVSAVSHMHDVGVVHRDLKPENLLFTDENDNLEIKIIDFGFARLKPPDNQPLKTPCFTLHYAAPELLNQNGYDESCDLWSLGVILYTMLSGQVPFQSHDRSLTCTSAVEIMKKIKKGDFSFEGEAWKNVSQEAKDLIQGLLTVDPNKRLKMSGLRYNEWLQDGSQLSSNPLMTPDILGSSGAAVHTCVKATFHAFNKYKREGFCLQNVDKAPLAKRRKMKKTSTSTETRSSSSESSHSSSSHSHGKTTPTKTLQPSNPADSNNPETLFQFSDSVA
# UniProt Q9BVS4, sequence (whole entry, looked up): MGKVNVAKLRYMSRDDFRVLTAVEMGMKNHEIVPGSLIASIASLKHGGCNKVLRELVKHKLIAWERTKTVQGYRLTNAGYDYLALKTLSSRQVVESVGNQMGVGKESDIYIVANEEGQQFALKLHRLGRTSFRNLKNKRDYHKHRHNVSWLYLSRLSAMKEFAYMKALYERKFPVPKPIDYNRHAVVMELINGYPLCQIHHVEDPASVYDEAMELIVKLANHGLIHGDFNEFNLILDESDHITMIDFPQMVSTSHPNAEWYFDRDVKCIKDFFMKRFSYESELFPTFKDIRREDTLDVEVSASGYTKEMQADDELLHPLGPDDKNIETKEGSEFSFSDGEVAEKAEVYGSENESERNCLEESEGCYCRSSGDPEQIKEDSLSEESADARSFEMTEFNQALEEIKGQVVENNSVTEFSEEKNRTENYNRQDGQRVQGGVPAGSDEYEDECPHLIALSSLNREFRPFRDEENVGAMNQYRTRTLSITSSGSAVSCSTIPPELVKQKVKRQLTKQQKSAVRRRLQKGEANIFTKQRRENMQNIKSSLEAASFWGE
# UniProt Q96J92, sequence (whole entry, looked up): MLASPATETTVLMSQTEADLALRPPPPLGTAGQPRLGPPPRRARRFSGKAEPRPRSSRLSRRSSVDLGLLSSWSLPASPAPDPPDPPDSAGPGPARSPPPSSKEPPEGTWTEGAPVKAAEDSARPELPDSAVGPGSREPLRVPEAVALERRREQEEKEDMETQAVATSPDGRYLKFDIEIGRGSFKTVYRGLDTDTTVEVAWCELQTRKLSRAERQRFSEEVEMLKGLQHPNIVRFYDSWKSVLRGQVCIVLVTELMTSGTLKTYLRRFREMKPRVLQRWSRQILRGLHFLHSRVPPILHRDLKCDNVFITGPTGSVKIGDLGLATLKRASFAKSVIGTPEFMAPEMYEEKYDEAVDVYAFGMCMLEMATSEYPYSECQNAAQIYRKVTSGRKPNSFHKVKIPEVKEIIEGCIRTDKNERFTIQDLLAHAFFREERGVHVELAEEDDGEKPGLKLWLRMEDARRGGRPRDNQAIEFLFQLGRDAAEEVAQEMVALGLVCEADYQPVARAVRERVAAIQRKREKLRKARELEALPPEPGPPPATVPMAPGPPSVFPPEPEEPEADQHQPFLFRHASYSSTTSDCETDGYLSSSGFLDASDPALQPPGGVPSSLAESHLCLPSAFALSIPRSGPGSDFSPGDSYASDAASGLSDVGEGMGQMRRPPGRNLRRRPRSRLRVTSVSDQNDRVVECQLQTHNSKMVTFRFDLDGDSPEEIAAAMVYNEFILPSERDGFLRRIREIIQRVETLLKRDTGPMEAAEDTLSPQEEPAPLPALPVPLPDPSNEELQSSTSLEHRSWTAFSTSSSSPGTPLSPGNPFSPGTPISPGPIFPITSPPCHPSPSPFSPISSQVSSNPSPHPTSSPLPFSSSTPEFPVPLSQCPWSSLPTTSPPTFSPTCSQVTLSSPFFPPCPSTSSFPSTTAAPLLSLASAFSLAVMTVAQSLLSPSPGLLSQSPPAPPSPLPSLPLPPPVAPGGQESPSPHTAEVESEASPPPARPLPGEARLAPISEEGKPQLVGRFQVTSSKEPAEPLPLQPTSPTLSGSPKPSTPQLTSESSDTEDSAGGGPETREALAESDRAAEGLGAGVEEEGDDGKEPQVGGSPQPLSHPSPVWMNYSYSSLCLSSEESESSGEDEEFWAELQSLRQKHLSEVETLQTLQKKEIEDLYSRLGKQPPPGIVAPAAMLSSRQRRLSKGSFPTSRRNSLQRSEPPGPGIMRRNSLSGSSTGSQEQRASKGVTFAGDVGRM
# UniProt Q9H1R3, sequence (whole entry, looked up): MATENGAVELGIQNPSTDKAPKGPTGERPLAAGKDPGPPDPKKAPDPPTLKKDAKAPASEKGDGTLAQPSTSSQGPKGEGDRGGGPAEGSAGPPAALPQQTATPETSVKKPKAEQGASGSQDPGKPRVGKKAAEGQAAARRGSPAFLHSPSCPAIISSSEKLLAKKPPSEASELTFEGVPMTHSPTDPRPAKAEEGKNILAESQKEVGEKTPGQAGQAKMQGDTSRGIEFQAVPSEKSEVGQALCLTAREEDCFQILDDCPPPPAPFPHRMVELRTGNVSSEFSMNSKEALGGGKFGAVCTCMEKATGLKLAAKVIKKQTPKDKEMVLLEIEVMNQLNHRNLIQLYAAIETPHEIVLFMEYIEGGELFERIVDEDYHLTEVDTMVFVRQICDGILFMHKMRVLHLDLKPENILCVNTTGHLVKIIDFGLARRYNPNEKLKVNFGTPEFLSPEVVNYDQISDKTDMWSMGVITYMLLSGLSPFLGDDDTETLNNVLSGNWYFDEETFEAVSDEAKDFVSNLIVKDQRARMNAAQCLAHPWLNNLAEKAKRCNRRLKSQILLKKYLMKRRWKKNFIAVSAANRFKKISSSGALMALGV

# Series 1
# SMILES: C[C@@H]1CN(c2ccc(-c3cc(C(=O)NCCOCCOCCOCCOCCNC(=O)Cn4cc(-c5[nH]cc(C(=O)N[C@@H](CC(N)=O)c6ccc(F)c(Cl)c6)c5-c5ccc(Cl)cc5F)cn4)ccc3F)cc2NC(=O)c2c[nH]c(=O)cc2C(F)(F)F)C[C@H](C)N1C
# Read-out: thermal unfolding
# Method: differential scanning fluorimetry
# Tested at: 5.5 µM
# Direction: higher = more unfolded
# WDR5: WD repeat-containing protein 5 (WDR5, Homo sapiens, UniProt P61964)
# DCAF1: DDB1- and CUL4-associated factor 1 (DCAF1, Homo sapiens, UniProt Q9Y4B6)
# UniProt Q9Y4B6, sequence (whole entry, looked up): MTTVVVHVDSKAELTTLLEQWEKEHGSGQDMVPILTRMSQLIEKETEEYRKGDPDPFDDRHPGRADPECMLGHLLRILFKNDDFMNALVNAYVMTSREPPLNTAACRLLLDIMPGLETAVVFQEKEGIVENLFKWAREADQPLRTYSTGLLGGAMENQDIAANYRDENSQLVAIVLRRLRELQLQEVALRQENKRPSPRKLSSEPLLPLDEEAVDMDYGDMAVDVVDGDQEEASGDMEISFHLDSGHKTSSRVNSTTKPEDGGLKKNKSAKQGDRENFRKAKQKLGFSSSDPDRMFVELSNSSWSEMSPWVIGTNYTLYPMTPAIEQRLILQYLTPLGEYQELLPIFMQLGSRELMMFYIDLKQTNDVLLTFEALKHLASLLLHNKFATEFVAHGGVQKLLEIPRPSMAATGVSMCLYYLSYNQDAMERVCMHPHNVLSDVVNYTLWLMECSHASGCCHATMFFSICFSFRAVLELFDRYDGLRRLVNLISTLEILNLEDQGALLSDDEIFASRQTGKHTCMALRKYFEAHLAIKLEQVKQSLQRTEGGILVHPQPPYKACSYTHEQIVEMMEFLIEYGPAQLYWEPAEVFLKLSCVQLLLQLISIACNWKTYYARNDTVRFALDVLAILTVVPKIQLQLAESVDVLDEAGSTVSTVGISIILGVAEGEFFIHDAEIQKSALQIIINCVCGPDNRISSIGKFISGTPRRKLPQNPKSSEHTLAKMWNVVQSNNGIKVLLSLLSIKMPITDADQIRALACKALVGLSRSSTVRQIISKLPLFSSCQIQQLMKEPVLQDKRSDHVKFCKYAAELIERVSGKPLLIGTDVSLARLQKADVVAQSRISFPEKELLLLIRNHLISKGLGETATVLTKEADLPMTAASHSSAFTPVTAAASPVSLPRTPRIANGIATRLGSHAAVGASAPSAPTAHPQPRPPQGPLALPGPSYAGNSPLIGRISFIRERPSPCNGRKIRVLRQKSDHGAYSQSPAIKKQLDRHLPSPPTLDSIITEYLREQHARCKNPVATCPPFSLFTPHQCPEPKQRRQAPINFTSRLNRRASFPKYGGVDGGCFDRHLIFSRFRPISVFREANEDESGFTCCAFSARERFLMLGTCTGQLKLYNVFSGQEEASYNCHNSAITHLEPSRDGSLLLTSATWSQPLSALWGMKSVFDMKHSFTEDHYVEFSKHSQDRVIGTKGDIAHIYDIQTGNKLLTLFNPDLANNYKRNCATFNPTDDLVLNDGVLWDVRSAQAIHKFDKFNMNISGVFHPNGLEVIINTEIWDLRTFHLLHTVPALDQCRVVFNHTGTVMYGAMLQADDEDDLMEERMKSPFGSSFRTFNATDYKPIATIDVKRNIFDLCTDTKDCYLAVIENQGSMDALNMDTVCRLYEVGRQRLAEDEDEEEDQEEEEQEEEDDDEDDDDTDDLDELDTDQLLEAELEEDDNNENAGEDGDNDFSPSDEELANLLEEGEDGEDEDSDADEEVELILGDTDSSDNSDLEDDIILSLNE
target,temperature,SYPRO Orange fluorescence [a.u.]
WDR5,77.81 °C,16700
WDR5,50 °C,14500
DCAF1,73.01 °C,51400
DCAF1,29.8 °C,8220
WDR5,47.4 °C,14400
DCAF1,54.61 °C,18700
DCAF1,51 °C,15200

# Series 2
# Target: E3 ubiquitin-protein ligase NEDD4, HECT domain (Homo sapiens, UniProt P46934)
# Read-out: enzyme activity
# Action: inhibitor
# Method: Ub-TR-FRET
# Matrix: HECT domain
# Tested at: 0.01524 µM
# Direction: higher = more chain formation
# Construct (P46934 938-1319, limits assumed): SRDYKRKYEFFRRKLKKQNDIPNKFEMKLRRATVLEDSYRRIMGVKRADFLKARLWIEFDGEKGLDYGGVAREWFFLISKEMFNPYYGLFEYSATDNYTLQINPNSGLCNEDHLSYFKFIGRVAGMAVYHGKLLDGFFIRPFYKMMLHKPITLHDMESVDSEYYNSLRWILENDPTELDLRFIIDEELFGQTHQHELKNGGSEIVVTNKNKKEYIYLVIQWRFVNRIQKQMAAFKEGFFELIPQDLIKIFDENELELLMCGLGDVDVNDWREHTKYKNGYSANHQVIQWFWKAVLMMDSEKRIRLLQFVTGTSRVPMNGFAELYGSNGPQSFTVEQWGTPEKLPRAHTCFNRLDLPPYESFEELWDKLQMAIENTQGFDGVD
Structure (SMILES),ubiquitin chain formation AUC
CCOC(=O)/C=C/CN(CCCCN1c2ccccc2CCc2ccc(Cl)cc21)C(C)C.O=C(O)/C=C\C(=O)O,85500 a.u. and 85300 a.u. and 84600 a.u. and 85800 a.u. and 86300 a.u.
CCOC(=O)/C=C/CNCCCCN1c2ccccc2COc2ccc(Cl)cc21.O=C(O)/C=C\C(=O)O,92500 a.u. and 91000 a.u. and 92600 a.u.
CCOC(=O)/C=C/CN(CC)CCCCN1c2ccccc2CCc2ccc(Cl)cc21.O=C(O)/C=C\C(=O)O,95300 a.u. and 103000 a.u. and 91400 a.u. and 95200 a.u. and 104000 a.u. and 102000 a.u.
CN(C)C(=O)/C=C/CNCCCN1c2ccccc2CCc2ccc(Cl)cc21.Cl,140000 a.u. and 141000 a.u.
CNC(=O)/C=C/CNCCCN1c2ccccc2CCc2ccc(Cl)cc21.Cl,130000 a.u. and 132000 a.u. and 134000 a.u.
N#C/C=C/CNCCCCN1c2ccccc2CCc2ccc(Cl)cc21.O=C(O)/C=C\C(=O)O,93000 a.u. and 92100 a.u. and 100000 a.u. and 88300 a.u. and 99600 a.u. and 101000 a.u.
CONC(=O)/C=C/CNCCCCN1c2ccccc2CCc2ccc(Cl)cc21.O=C(O)/C=C\C(=O)O,40200 a.u. and 62600 a.u. and 66200 a.u. and 38700 a.u. and 39500 a.u. and 64600 a.u.
CNCCCN1c2ccccc2CCc2ccc(Cl)cc21,144000 a.u. and 146000 a.u. and 143000 a.u.
CCOC(=O)/C=C/CNCCCCN1c2ccccc2C(=O)N(C)c2ccc(Cl)cc21.O=C(O)/C=C\C(=O)O,94200 a.u. and 92600 a.u. and 99000 a.u.
COC(=O)CCCNCCCN1c2ccccc2CCc2ccc(Cl)cc21.COC(=O)CCCNCCCN1c2ccccc2CCc2ccc(Cl)cc21.O=C(O)/C=C/C(=O)O,133000 a.u. and 132000 a.u.

# Series 3
# Structure (SMILES): Cc1ncsc1-c1ccc(C(CO)NC(=O)C2CC(O)CN2C(=O)C(C(C)C)n2cc(-c3ccc(COc4c(-c5c(C)c(F)cc6[nH]ncc56)c(C5CC5)cc5c(N6CC7CC6CN7)nc(OC6CCOCC6)nc45)cc3)nn2)cc1 (stereo not drawn)
# Read-out: KRAS-RAF interaction
# Action: inhibitor
# Method: TR-FRET
# KRAS with RAF: GTPase KRas, with RAF (KRAS, Homo sapiens, UniProt P01116)
# KRAS/VHL with RAF: KRAS/VHL, with RAF (Homo sapiens, UniProt P01116+P40337)
target,tested at,notes,with,inhibition
KRAS with RAF,10 nM,binary,SOS-mediated nucleotide exchange,-2.79% and -8.45%
KRAS/VHL with RAF,300 nM,"ternary, KRAS wild type",VCB complex,39.8% and 38.4%
KRAS/VHL with RAF,30 nM,"ternary, KRAS wild type",VCB complex,5.45% and 2.85%
KRAS with RAF,10 µM,binary,SOS-mediated nucleotide exchange,30.5% and 32.6%
KRAS/VHL with RAF,1 µM,"ternary, KRAS wild type",VCB complex,58% and 55.3%
KRAS with RAF,3 µM,binary,SOS-mediated nucleotide exchange,9.44% and 11%

# Series 4
# Structure (SMILES): CC[C@@]1(c2cccc(C(F)(F)F)c2)C2=C(Nc3n[nH]cc31)[C@H](F)C(C)(C)CC2=O (single isomer, unassigned)
# Tested at: 1 µM
target,read-out,method,reference,remaining binding [%]
"Serine/threonine-protein kinase RIO2 (RIOK2, Homo sapiens, UniProt Q9BVS4)",binding,competition with immobilised ligand,,92
"Serine/threonine-protein kinase DCLK1 (DCLK1, Homo sapiens, UniProt O15075)",kinase binding,KINOMEscan,DMSO control,74
"High affinity nerve growth factor receptor (NTRK1, Homo sapiens, UniProt P04629)",binding,competition with immobilised ligand,,88
"Myosin light chain kinase 2, skeletal/cardiac muscle (MYLK2, Homo sapiens, UniProt Q9H1R3)",kinase binding,KINOMEscan,DMSO control,100
"FLT3 ITD/F691L, human",,KINOMEscan,,100
"Calcium/calmodulin-dependent protein kinase type 1 (CAMK1, Homo sapiens, UniProt Q14012)",binding,competition with immobilised ligand,,100
"Tyrosine-protein kinase Fer (FER, Homo sapiens, UniProt P16591)",binding,competition with immobilised ligand,,100
"Ribosomal protein S6 kinase alpha-5, C-terminal kinase domain (RPS6KA5, Homo sapiens, UniProt O75582)",kinase binding,KINOMEscan,DMSO control,90
"Ribosomal protein S6 kinase alpha-2, C-terminal kinase domain (RPS6KA2, Homo sapiens, UniProt Q15349)",binding,competition with immobilised ligand,,73
"Serine/threonine-protein kinase Sgk1 (SGK1, Homo sapiens, UniProt O00141)",binding,competition with immobilised ligand,,92
"Serine/threonine-protein kinase WNK4 (WNK4, Homo sapiens, UniProt Q96J92)",kinase binding,KINOMEscan,DMSO control,81
"Eukaryotic translation initiation factor 2-alpha kinase 1 (EIF2AK1, Homo sapiens, UniProt Q9BQI3)",kinase binding,KINOMEscan,DMSO control,100
"Mast/stem cell growth factor receptor Kit (KIT, Homo sapiens, UniProt P10721, V559D)",binding,competition with immobilised ligand,,100

# Excerpt of the above (series 3):
target,tested at,notes,with,inhibition
KRAS with RAF,10 nM,binary,SOS-mediated nucleotide exchange,-2.79% and -8.45%
KRAS/VHL with RAF,300 nM,"ternary, KRAS wild type",VCB complex,39.8% and 38.4%
KRAS/VHL with RAF,30 nM,"ternary, KRAS wild type",VCB complex,5.45% and 2.85%
